Measured values of several laboratories.
Every numbered part comes from another study and shows a few of its results, in no order. Substitutions count along the parent as printed.

Sample 1
Target: RNA binding protein fox-1 homolog 2, RRM domain, GST-SBP tag (RBFOX2, Homo sapiens, UniProt O43251-10, residues 100-194)
Method: RNA Bind-n-Seq
Molecule type: RNA
Matrix: in vitro
Tested at: 365 nM
Notes: natural RNA segment, single round, ends assumed
Reference: no-protein control
Direction: higher = stronger binding
Quantity: RBNS enrichment (R)
All sequences stand within: GGGAGUUCUACAGUCCGACGAUC … UGGAAUUCUCGGGUGCCAA
Residues (chain): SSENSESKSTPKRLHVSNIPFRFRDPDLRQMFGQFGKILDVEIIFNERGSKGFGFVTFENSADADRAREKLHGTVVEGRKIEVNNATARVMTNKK
UUGGACACUCCUGAGACUCCAAGUCUGGCUUUCAGUUCAGUUUUCAUCUGUGUUGACAUCGGGGCCAGAAAGCACAGCCAGCUAAAUGGGCCUCUGAGGUCACCUUCCCU: 0.243
CUGAGUGGAAAGGGGUUUUUGUUCUGUUUUUAUUUUACCUACAUGUACUAUUUAGCUUCAGUGUACUAGUCCUGCCACCUGUGUAUUUUUAGGGUGCUAUGGAAAUAAUG: 1.63
GAGUGAUCUAUGUCUCUUCCCCCCAGCAGCUGGGACCAGUCCUAGCCCCGUCCCCAACCCCUUUCCCUUGGGGAGUUGGGGGAAUUCCUGCCAAGCACCUUGAAUGGGAG: 0.316
UUUGCAUUGUUUUUGAACUAUUGGGACUUAGUACUUACGACUUCAUUAAAGAAAAUGGUUUUCUACCAUUUCGACUGGAUCAUAUCAGAAAGAUGGCAUAUCAGAUAUGC: 0.588
UCUGGAAUUGGCCUCUGUGGGCAUUGACUCGUCUUGGCCUAGGAGGCAUUGGUGCCUCCCUGGCAAGUCCUUAACGUACAGUACCUGUAGCUGUGAGUGUGGCCUGCUGC: 0.459
AUCGUAUCGUGUGUGCGUGCGUGUGUGACGUCAGGCUGCCACGUAAACUUCAGAGAAGAACCUUAAAGCAGACCAUCCAUUUUUGCAUGCUCUCUUCUAAGUAGAAUGUU: 2.34
UUCAGAAGAUUAGAAUUGGGUAGAUAUACUGUUGGAUAUAGCCAUGGUAAAUUUAACUGAGGAAUUAAAUCCUUGUUAAUUUUGGUGUAAAGAUUUGUAUCCUGGCCUGU: 0.343
CAUUGCCUCUCAGCAUUCCGGCCUAAGUUGCGCCCUCCCAGUAUCAGCUCUGAAAGUCUAGGAAUAGUCUUUGUAACAUCUUAGCAGAUGUGUCCUUGUAUGCUGGUGGA: 0.338
CAUCAACUCUGGCUCUUGUAGGGGCUGGAGCAGCUAGUUCAUGCUGCCUGUGGAACUCACUUCCUGGACUGAUGAGCACGGUCAGCCUCUGUCCCCACUGCAGGUGCUGC: 0.345
AUUUUCAGGAAAUCACUGUAUUAGGAAUGUGCAAUGACUUAUAUAAAUAAAAGCCAUUUUUAAAACUUUUGGGGCUUGUGUUCUAAUUAUUCCCCCCUUUUUUUUAUUUC: 0.948

Sample 2
Target: ABI1, truncated, D143A, DHFR fusion (Arabidopsis thaliana)
Method: DHFR PCA, deep sequencing
Matrix: yeast
Notes: methotrexate growth selection, single substitutions
With: (+)-ABA 1.4 µM
Reference: wild-type fitted maximum
Direction: higher = stronger binding
Quantity: relative binding score
Parent: PYL1, truncated, DHFR fusion (Arabidopsis thaliana); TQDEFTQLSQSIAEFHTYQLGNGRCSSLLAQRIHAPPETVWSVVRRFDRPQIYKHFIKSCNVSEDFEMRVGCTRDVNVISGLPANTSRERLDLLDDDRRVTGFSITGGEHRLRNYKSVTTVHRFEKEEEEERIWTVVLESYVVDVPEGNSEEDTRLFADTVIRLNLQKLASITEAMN; partner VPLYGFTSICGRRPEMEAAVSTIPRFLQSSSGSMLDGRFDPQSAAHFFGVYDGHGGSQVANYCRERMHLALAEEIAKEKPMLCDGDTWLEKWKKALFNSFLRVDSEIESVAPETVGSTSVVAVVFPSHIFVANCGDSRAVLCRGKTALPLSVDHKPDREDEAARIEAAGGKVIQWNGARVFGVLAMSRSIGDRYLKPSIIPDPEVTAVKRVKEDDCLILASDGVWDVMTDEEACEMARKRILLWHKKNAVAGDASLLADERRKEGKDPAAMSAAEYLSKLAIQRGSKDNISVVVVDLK
P146N: -16.7%
I57H: -11.2%
D65T: 34.6%
L112M: 26.9%
I133Q: 77.2%
L169V: -5.54%
N165F: -1.17%
G148V: -7.33%

Sample 3
Target: CCNE1, cyclin fold, Cln2 fusion (human)
Method: yeast growth competition, sequencing
Matrix: yeast
Notes: weak parent motif
Reference: not given
Direction: higher = stronger binding
Quantity: normalised enrichment score
Parent: ORC1 docking peptide (human); PRARKRLELGNLG
L7K: 0.854
R4G: 0.38
E8K: 0.0662
L12N: 0.444
R6E: -0.043
G10W: 1.38
R6P: 0.209
G13V: 0.29
N11H: 0.241
A3T: 0.671

Mixed results
PhoQ, residues 284 288 289 292 302 303 TLASMF
fold induction (PhoP, residues 12 14 15 18 19 GHCSL (Escherichia coli, UniProt P23836); Sort-seq, refers to: YFP reporter; E. coli; PhoQ-PhoP variant library, with: 10 µM Mg2+; reference: high Mg2+ state, higher = stronger signaling): 18.4

For quick reference, copied from above (sample 1):
UCUGGAAUUGGCCUCUGUGGGCAUUGACUCGUCUUGGCCUAGGAGGCAUUGGUGCCUCCCUGGCAAGUCCUUAACGUACAGUACCUGUAGCUGUGAGUGUGGCCUGCUGC: 0.459
AUCGUAUCGUGUGUGCGUGCGUGUGUGACGUCAGGCUGCCACGUAAACUUCAGAGAAGAACCUUAAAGCAGACCAUCCAUUUUUGCAUGCUCUCUUCUAAGUAGAAUGUU: 2.34
UUCAGAAGAUUAGAAUUGGGUAGAUAUACUGUUGGAUAUAGCCAUGGUAAAUUUAACUGAGGAAUUAAAUCCUUGUUAAUUUUGGUGUAAAGAUUUGUAUCCUGGCCUGU: 0.343
CAUUGCCUCUCAGCAUUCCGGCCUAAGUUGCGCCCUCCCAGUAUCAGCUCUGAAAGUCUAGGAAUAGUCUUUGUAACAUCUUAGCAGAUGUGUCCUUGUAUGCUGGUGGA: 0.338
CAUCAACUCUGGCUCUUGUAGGGGCUGGAGCAGCUAGUUCAUGCUGCCUGUGGAACUCACUUCCUGGACUGAUGAGCACGGUCAGCCUCUGUCCCCACUGCAGGUGCUGC: 0.345
